Assay results pooled from the literature.
Compare with care: the assays were run in different laboratories. Numbers after ± are the reported error.

| SMILES | test | system | conditions | how to read | AUC(0-inf) |
| --- | --- | --- | --- | --- | --- |
| CNC(=O)c1ccc(-c2cnc3ncc(Cc4ccc5ncccc5c4)n3n2)cc1F |  | human moderate hepatic impairment | oral, 200 mg single dose, covariate-adjusted geometric mean |  | 6230 ng·h/mL |
| Cn1cncc1[C@@](N)(c1ccc(Cl)cc1)c1ccc2c(c1)c(-c1cccc(Cl)c1)cc(=O)n2C |  | human, without dose-limiting toxicity, plasma | oral, dose not given, range |  | 2800 to 36100 ng·h/mL |
| CNC(=O)c1c(C)oc2cc(Oc3ncnc4cc(OC)c(OC)cc34)ccc12 |  | healthy human subjects, plasma | oral, 5 mg, arithmetic mean, added: dabigatran etexilate 150 mg |  | 5310 ng·h/mL |
| N[C@](CO)(CCc1ccc(Sc2cccc(OCc3ccccc3)c2)cc1Cl)COP(=O)(O)O |  | human, blood | 3 mg MOC, MOC given alone |  | 121 ng·h/mL |
| C[C@@H](Oc1ccc(S(C)(=O)=O)cc1C(=O)N1C[C@@H]2C[C@]2(c2cc(C(F)(F)F)on2)C1)C(F)(F)F |  | healthy human volunteers, fed, plasma | oral, 10 mg single, adjusted geometric mean |  | 4.47 µM·h |
| Cc1cc(C)c(CNC(=O)c2cc(Cl)c3c(c2C)O[C@@](C)([C@H]2CC[C@H](N(C)C)CC2)O3)c(=O)[nH]1 |  | healthy male human, plasma | oral, 25 mg, alone, before itraconazole |  | 804 ng·h/mL |
| CC(C)[C@@H]1CC[C@@H](C)C[C@H]1OC(=O)O[C@@H](C)OC(=O)[C@H]1[C@@H]2C[C@H](F)[C@@](N)(C(=O)O)[C@@H]21 |  | human, plasma | oral, 20 mg single dose, fed |  | 83.7 ng·h/mL |
| C[C@@H](Oc1ccc(S(C)(=O)=O)cc1C(=O)N1C[C@@H]2C[C@]2(c2cc(C(F)(F)F)on2)C1)C(F)(F)F |  | young humans, plasma | oral, 75 mg single dose, geometric mean |  | 34.1 µM·h |
| CN[C@@H](C)C(=O)N[C@H]1CN(S(=O)(=O)c2cccc(S(=O)(=O)N3CC[C@H]4CC[C@@H](C(=O)NC(c5ccccc5)c5ccccc5)N4C(=O)[C@@H](NC(=O)[C@H](C)NC)C3)c2)CC[C@H]2CC[C@@H](C(=O)NC(c3ccccc3)c3ccccc3)N2C1=O | LC-MS/MS, noncompartmental | human, plasma | 45 mg, cycle 1 day 1 |  | 1080 ± 600 ng·h/mL |
| NC(=O)c1[nH]cnc1N |  | human patients, plasma | IV infusion over 1 h, 1000 mg/m^2 DTIC, cycle 1 day 1, DTIC alone |  | 25500 ng·h/mL |
| COC(=O)N[C@@H](C)CNc1nccc(-c2cn(C(C)C)nc2-c2cc(Cl)cc(NS(C)(=O)=O)c2F)n1 |  | human, plasma | oral, 50 mg, single dose alone | geometric mean | 2050 ng·h/mL |
| CC(C)=CCC/C(C)=C/CC/C(C)=C/CC[C@@](C)(O)CCC1=C(C)C(=O)C(C)=C(C)C1=O |  | healthy human, plasma | oral, 400 mg, single dose, alone |  | 4240 ng·h/mL |
| Cn1c(=O)oc2ccc(-c3ccc(C[C@@H](C#N)NC(=O)[C@@H]4CNCCCO4)cc3)cc21 |  | human, mild renal impairment, plasma | oral, 25 mg single dose, geometric least squares mean |  | 3430 ng·h/mL |
| CCn1cc(C(=O)N2CCOCC2)c(=O)c2cc(NC3Cc4ccccc4C3)cnc21 |  | human, fasted, plasma | oral, 600 mg single dose, tablet, arithmetic mean |  | 19900 ng·h/mL |
| Cc1[nH]c(/C=C2\C(=O)Nc3ccc(F)cc32)c(C)c1C(=O)N[C@H]1CCN(C(=O)N(C)C)C1 |  | human patients, plasma | oral, 200 mg single dose, added: everolimus 5 mg |  | 18500 ± 17500 ng·h/mL |
| N[C@@H]1c2cccnc2[C@H](OC(=O)N2CCC(n3c(=O)[nH]c4ncccc43)CC2)CC[C@H]1c1cccc(F)c1F |  | human, plasma | oral, dose not given, single dose, geometric LS mean, added: fluconazole |  | 9270 ng·h/mL |
| CCCCOc1nc(N)c2c(n1)N(Cc1cccc(CN3CCCC3)c1)CC(=O)N2 |  | human | oral, 2 mg, mean |  | 17.6 ng·h/mL |
| CN1C(=O)[C@@H](NC(=O)c2nnc(Cc3ccccc3)[nH]2)COc2cccnc21 |  | healthy human, fasted, plasma | oral, 10 mg single dose, geometric mean |  | 1800 ng·h/mL |
| C[C@@H](Cn1ccc(-c2ccc(C#N)c(Cl)c2)n1)NC(=O)c1cc([C@@H](C)O)[nH]n1 |  | human, fasted, plasma | oral solution, 300 mg 14C-darolutamide, geometric mean |  | 7110 ng⋅h/mL |

| SMILES | test | system | conditions | how to read | AUC(0-inf) |
| --- | --- | --- | --- | --- | --- |
| C[C@H]1CN(C(=O)CC#N)[C@]12CCN(c1ncnc3[nH]ccc13)C2 |  | healthy human, plasma | oral, 6 mg single, mean |  | 222 ng·h/mL |
| CCCn1cc(C)c2c(=O)[nH]c(-c3cc(S(=O)(=O)N4CCN(CC)CC4)ccc3OCC)nc21 |  | human, plasma | oral, 100 mg, added: alcoholic beverage 0.5 g/kg |  | 303 ± 190 ng·h/mL |
| CCCCCCCCCCCCCCCC(=O)N[C@@H](CCC(=O)NCCCC[C@@H]1NC(=O)[C@H]([C@@H](C)CC)NC(=O)[C@@H](NC(=O)[C@@H]2CCCN2C(=O)[C@H](Cc2ccccc2)NC(=O)[C@H](Cc2c[nH]cn2)NC(=O)[C@@H](NC(=O)[C@H](CC(=O)O)NC(=O)CC(C)C)[C@@H](C)O)CSSC[C@@H](C(=O)N[C@@H](CCCCN)C(N)=O)NC(=O)CNC(=O)[C@H](CCCCN)NC(=O)[C@H](CO)NC(=O)[C@H](CCCNC(=N)N)NC(=O)[C@@H]2CCCN2C(=O)[C@H](CCC(=O)O)NC(=O)[C@H](Cc2ccccc2)NC1=O)C(=O)O |  | healthy human, plasma | subcutaneous, 20 mg, single dose, aqueous formulation |  | 14300 ± 4580 ng·h/mL |
| C=CC(=O)N(C)CCOc1c(N)ncnc1-c1cc(F)cc(NC(=O)c2ccc(C3CC3)cc2F)c1C |  | human, whole blood | oral, 30 mg, single ascending dose |  | 77.5 ng·h/mL |
| C=CC(=O)NC1CCN(c2ncc3ncnc(Nc4ccc(Oc5ccc6c(c5)ncn6C)c(C)c4)c3n2)CC1 |  | human, male, plasma | oral, 240 mg single dose, fed, geometric mean |  | 60 µM·h |
| CN(CC#N)C(=O)C[C@H](Nc1nc2ccccc2[nH]1)c1cccc(C(F)(F)F)c1 |  | human | intravenous infusion, 3 mg/kg, 1 mg/mL formulation |  | 23900 ± 5250 ng·h/mL |
| Cn1nnc2c(C(N)=O)ncn2c1=O |  | human patients, plasma | oral, 20 mg/m2, day 5, dose level DL2, median, added: talazoparib 400 µg/m2 |  | 3170 ng·h/mL |
| CNC(=O)n1ccc2cc(Oc3ccnc(NC(=O)c4ccc(C5CCN(CCO)CC5)cc4)c3)c(OCCOC)cc21 |  | healthy human, plasma | oral, 35 mg, geometric mean, alone |  | 108 ng·h/mL |
| CCN1CCN(Cc2ccc(Nc3ncc(F)c(-c4cc(F)c5nc(C)n(C(C)C)c5c4)n3)nc2)CC1 |  | fasted healthy human subjects, plasma | oral, 200 mg, 2 × 100 mg capsules |  | 3940 ng·h/mL |
| CCOc1cc([C@@H](CS(C)(=O)=O)N2C(=O)c3cccc(NC(C)=O)c3C2=O)ccc1OC |  | healthy human, plasma | oral, 30 mg |  | 2470 ng·h/mL |
| CN(C)C(=O)c1cc2cnc(Nc3ccc(N4CCNCC4)cn3)nc2n1C1CCCC1 |  | human, moderate renal impairment, plasma | oral, 400 mg, geometric mean |  | 7960 ng·h/mL |
| CCNCCCNC/C=C\CNCCCNCC | LC-MS/MS | human cancer patients, plasma | intravenous infusion 60 min, 200 mg, median, cycle 1 |  | 1330 ng·h/mL |
| Nc1ccn([C@@H]2O[C@H](CO)[C@@H](O)C2(F)F)c(=O)n1 | HPLC-UV | human, plasma | intravenous, 800 mg/m^2, mean, before paricalcitol |  | 17500 ng·h/mL |
| Cn1cncc1[C@@](N)(c1ccc(Cl)cc1)c1ccc2c(c1)c(-c1cccc(Cl)c1)cc(=O)n2C |  | healthy human subjects, plasma | oral, 50 mg, fed (high-fat meal) |  | 523 ng·h/mL |
| CC1=C(c2cccc(O)c2)[C@H](c2ccc(OCCN3CC(CF)C3)cc2)Oc2ccc(O)cc21 |  | human, plasma | oral, 1400 mg single dose, geometric mean |  | 3400 ng·h/mL |
| CC(C)c1nc(N(C)S(C)(=O)=O)nc(-c2ccc(F)cc2)c1/C=C/[C@@H](O)C[C@@H](O)CC(=O)O |  | human, plasma | oral, 20 mg, day 2, mean, alone |  | 57.8 ng·h/mL |
| CN1CCC(COc2cnc(-c3cccc(Cn4nc(-c5cccc(C#N)c5)ccc4=O)c3)nc2)CC1 |  | human, plasma | dose not given, day 12, single dose, geometric mean, added: itraconazole 200 mg once daily days 8-18 |  | 23200 ng·h/mL |
| O=C(O)CCC(=O)O.[2H]C([2H])([2H])Oc1cc(C)c2[nH]ccc2c1CN1CC[C@@H](C2CC2)C[C@H]1c1ccc(C(=O)O)cc1 | LC-MS/MS, geometric mean | human, plasma | 50 mg, single dose, fasting |  | 32900 ng·h/mL |

Some of these lines once more:
| SMILES | test | system | conditions | how to read | AUC(0-inf) |
| --- | --- | --- | --- | --- | --- |
| CCN1CCN(Cc2ccc(Nc3ncc(F)c(-c4cc(F)c5nc(C)n(C(C)C)c5c4)n3)nc2)CC1 |  | fasted healthy human subjects, plasma | oral, 200 mg, 2 × 100 mg capsules |  | 3940 ng·h/mL |
| Cn1cncc1[C@@](N)(c1ccc(Cl)cc1)c1ccc2c(c1)c(-c1cccc(Cl)c1)cc(=O)n2C |  | healthy human subjects, plasma | oral, 50 mg, fed (high-fat meal) |  | 523 ng·h/mL |
| C[C@@H](Cn1ccc(-c2ccc(C#N)c(Cl)c2)n1)NC(=O)c1cc([C@@H](C)O)[nH]n1 |  | human, fasted, plasma | oral solution, 300 mg 14C-darolutamide, geometric mean |  | 7110 ng⋅h/mL |
| CN(CC#N)C(=O)C[C@H](Nc1nc2ccccc2[nH]1)c1cccc(C(F)(F)F)c1 |  | human | intravenous infusion, 3 mg/kg, 1 mg/mL formulation |  | 23900 ± 5250 ng·h/mL |
| CNC(=O)c1ccc(-c2cnc3ncc(Cc4ccc5ncccc5c4)n3n2)cc1F |  | human moderate hepatic impairment | oral, 200 mg single dose, covariate-adjusted geometric mean |  | 6230 ng·h/mL |
